Published values from different studies.
Each numbered part is a random draw from the data of one study; scales do not carry over between parts. Substitutions count along the parent as printed.

Study 1 — method: protein binding microarray; form: double-stranded DNA, one strand shown; sample: in vitro; tested at: not given; baseline: not given; direction: higher = stronger binding; quantity: E-score
Target: Histone acetyltransferase KAT6A, winged helix 1, GST fusion (KAT6A, Homo sapiens, UniProt Q92794, residues 1-85)
Notes: 8-mer, flanks averaged, mean of 2 arrays, mostly near background
Residues (chain): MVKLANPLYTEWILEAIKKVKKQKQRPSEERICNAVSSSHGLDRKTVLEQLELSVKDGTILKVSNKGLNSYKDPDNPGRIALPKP
AAGGAGGG: -0.134
ACCCGTGC: 0.304
AGTACGAA: -0.132
AGCCTTGC: 0.0179
CATATGCC: 0.0185
CTTAGCGA: 0.06
ACATCATG: -0.0177
AGGTGTTC: -0.111
CATGGAAA: -0.224
ACTGGAAA: -0.145
CGGATTAG: 0.204
AAGCAATG: -0.216
CGGCTGGA: 0.264
GCTGGCCA: -0.0465
CCAAGCCA: -0.165
AATGTAAT: -0.0289
GGGCCACA: -0.0752
CCGATTAC: 0.0868
AAGCCTCG: 0.0244
ACGATGAT: -0.106
GTCTTAAC: -0.131
ACGGCGAT: 0.39

Study 2 — target: CREM, bZIP domain (human); method: DHFR protein complementation; sample: yeast; baseline: wild-type JUN-FOS pair; direction: higher = stronger binding; quantity: binding fitness
Notes: single substitutions, most at no-binding floor
Starting sequence: JUN, bZIP domain (human); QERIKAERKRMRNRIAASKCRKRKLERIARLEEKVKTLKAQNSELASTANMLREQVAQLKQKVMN; partner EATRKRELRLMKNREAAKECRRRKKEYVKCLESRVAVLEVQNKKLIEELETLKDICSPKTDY
T48M: -1.36 natural log
R30M: -1.26 natural log
R30A: -1.27 natural log
L59G: -1.15 natural log
A49T: -1.49 natural log
Q41R: -1.36 natural log
R53V: -1.46 natural log
A40V: -1.49 natural log
R30K: -1.5 natural log
L52K: -1.5 natural log
L38S: -1.45 natural log

Study 3 — method: protein-binding microarray; form: double-stranded DNA, one strand shown; sample: in vitro; tested at: 940 nM top; notes: 60-bp whole probe; together with: salmon DNA 0.4 mg/ml; baseline: random background probes; direction: higher = stronger binding; quantity: fitted relative affinity; all sequences stand within: GCCTAGCAC … GTCTTGATTCGCTTGACGCTGCTG
Target: Interferon regulatory factor 5, full length, phosphomimetic (IRF5, Homo sapiens, UniProt Q13568-2, residues 1-514, S451D/S453D/S456D/S462D)
TCAAATATGAGACTGGGACTGTGCTAG: -0.253 z-score
GACGGTATCCTTTTCGTGACGTGCTAG: 0.663 z-score
TCAATTCTGCTTTGCAAACTGTGCTAG: 0.0272 z-score
TCTGTTTCCTCTTTCTTTGCGTGCTAG: 2.36 z-score
TTAGGACTGCTGTTCCTTTAGTGCTAG: -0.536 z-score
TTAGATTTCTGTTCCGATTAGTGCTAG: 1.56 z-score
TTAGGTTTCGACACTGGGTGAGTGCTA: 7.85 z-score
TCACCTTGAGGTTTTCTCACTGTGCTA: 0.27 z-score
CTAGTTCTGCTTTGCCTTCAGTGCTAG: 0.516 z-score
ATAAATATGAGACTGGGGATGTGCTAG: -0.0221 z-score
CACGATATCAGTATCGAGACGTGCTAG: 1.71 z-score
GACGATATCAGTATGGAGACGTGCTAG: -0.123 z-score
TTAGTTATCGGTATCGGTTAGTGCTAG: 5.72 z-score
GACGAAATGAGTATCGAGACGTGCTAG: 1.82 z-score
TAGTATTTTTTTCCAGAGGGGTGCTAG: 1.07 z-score
TCACCTTGGCCTCTAGGACTGTGCTAG: -0.566 z-score
GACGGTTTCGGGACTGGGGACGTGCTA: 6.47 z-score
TTAGGACCGGGACTGGGTTAGTGCTAG: -0.332 z-score

Study 4 — method: RNA Bind-n-Seq; form: RNA; sample: in vitro; tested at: 1 µM; notes: whole 134-nt RNA, ends assumed; together with: 150 mM KCl; baseline: input library; direction: higher = stronger binding; quantity: log2 enrichment
Target: Ras GTPase-activating protein-binding protein 1, C-terminal RGG region (G3BP1, Homo sapiens, UniProt Q13283)
Chain of UniProt Q13283 (whole entry, looked up): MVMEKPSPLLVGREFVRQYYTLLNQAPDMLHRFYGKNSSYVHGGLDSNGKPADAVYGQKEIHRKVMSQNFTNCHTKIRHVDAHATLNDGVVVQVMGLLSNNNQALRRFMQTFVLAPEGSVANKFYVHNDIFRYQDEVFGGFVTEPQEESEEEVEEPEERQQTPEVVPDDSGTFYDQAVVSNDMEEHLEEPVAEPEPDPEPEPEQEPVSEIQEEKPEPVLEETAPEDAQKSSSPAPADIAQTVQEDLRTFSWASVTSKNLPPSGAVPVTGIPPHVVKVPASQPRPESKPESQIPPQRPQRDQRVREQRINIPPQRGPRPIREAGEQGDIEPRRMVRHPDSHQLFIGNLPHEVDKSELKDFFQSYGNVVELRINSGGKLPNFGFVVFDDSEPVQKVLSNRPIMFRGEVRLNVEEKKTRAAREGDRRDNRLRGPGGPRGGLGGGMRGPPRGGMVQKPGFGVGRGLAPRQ
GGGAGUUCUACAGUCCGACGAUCGCAGGAAGUAAAAACAAAUGGAAAUGCUUCGGAUAGUGGCAGGGGUGGGGGUUGCUAAGGAAAGGGUGGGAUGGAAGUGGGUAAAGAGUUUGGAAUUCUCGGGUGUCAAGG: 1.63
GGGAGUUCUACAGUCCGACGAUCUCCUGUGCUACACAUCGUAUGUACCGAAUCGGGAAAAAAGGGAAAAAAGGGAAAAAAGGGAAAGUAUUAUGUUACGCCGUUCGGAUCUGCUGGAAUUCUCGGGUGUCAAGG: -0.775
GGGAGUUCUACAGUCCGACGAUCUGGGGGGUGGAUUUUGUUUAUUUUUUUAGCUCAUUUCCAGGGGUGGGAAUUUUUUUUUAAUAUGUGUCAUGAAUAAAGUUGUUUUUGAAAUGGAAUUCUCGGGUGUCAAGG: 3.88
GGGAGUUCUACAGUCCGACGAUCCCUGUGCUACACAUCGUAUGUACCGAAUCAAAUUUUUUUAAACCCCCAAACCCCCCCAAAAAAGUAUUAUGUUACGCCGUUCGGAUCUGCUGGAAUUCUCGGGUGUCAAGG: -1.04
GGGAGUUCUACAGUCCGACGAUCACCAUGCAGGUGGGCAUCUUUGGGAAGUGGGGAAAGGGGGGGAUAGGGAGGGGGGUAACACUUUGGGAACAGGUGGUCCCAGGUCGUUUCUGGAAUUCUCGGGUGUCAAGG: -0.707
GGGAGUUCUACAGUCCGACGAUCCACAGACAACACGCACCCACACAGACACAGAGGGAAGGGGUUGGGAUGGGGACAGGGUGCACAGCAGGGCGGGGUAGGACCCCAGCCGCUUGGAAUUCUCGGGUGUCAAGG: -0.75
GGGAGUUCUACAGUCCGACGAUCACCAUGCAGGUGGGCAUCUUUGGGAAGUAAAGCAAGGGGGGGAUAGGGAGGGGGGUAACACUUUGGGAACAGGUGGUCCCAGGUCGUUUCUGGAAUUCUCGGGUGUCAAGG: -0.914
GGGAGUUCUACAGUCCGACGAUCUUGCCCUGGUGGCAUGCGGGGAGGAAGAGGUGGCCUCAUGGAUCGUGGUGGUCCCGGUGGAAUGUUCAGAGGUGGCCGUGGUGGAGACAGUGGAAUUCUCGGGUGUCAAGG: 2.29
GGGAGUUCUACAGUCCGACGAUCGCAGGAAGUAAAAACAAAUGGAAAUGCUUCGGAUAGUGGCAGGGGUGGGGGUUGCUAAGGAAAGGAAAGGAUGGGAGUGGGUAAAGAGUUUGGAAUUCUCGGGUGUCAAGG: 1.47

Study 5 — target: CCND3, cyclin fold, Cln2 fusion (human); method: yeast growth competition, sequencing; sample: yeast; notes: weak parent motif; baseline: not given; direction: higher = stronger binding; quantity: normalised enrichment score
Starting sequence: WEE1 docking peptide (human); HKTFRKLRLFDTP; partner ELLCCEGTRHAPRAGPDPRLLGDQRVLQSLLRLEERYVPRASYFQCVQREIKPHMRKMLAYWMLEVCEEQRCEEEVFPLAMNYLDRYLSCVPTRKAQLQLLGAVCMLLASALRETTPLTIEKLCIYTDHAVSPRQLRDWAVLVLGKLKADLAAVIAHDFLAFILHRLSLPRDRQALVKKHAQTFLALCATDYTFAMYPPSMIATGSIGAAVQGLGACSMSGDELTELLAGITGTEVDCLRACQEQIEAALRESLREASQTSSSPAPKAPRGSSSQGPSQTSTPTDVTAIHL
HKTFRKCRLFDTP [L7C]: 0.244
HKTFRKLRLFHTP [D11H]: -0.0771
HQTFRKLRLFDTP [K2Q]: 0.146
HKTFRKLRLFDLP [T12L]: 0.11
HKTYRKLRLFDTP [F4Y]: 0.142
HKTFAKARLFDTP [R5A L7A]: 0.0528
HKTFDKLRLFDTP [R5D]: 0.034
HKTFRKRRLFDTP [L7R]: 0.102
HKTFRKLRLFDVP [T12V]: 0.176
HKTFRELRLFDTP [K6E]: 0.131
HKTFRKLRLFYTP [D11Y]: 0.0924
HKTFAKLRLFDTP [R5A]: -0.085
HKTFRKARLFDTP [L7A]: 0.0392
HKLFRKLRLFDTP [T3L]: 0.0101
HKTFRKLRLFDKP [T12K]: 0.112
HKTFRKLRLMDTP [F10M]: 0.136
HKTNRKLRLFDTP [F4N]: 0.074
AKTFRKLRLFDTP [H1A]: 0.204
HKTFRKLRLFDTV [P13V]: 0.184
HKTFRKLRLFDTG [P13G]: 0.0812
HKTERKLRLFDTP [F4E]: 0.0867
HKTFRKLRLFDAP [T12A]: 0.175
HKTFRKWRLFDTP [L7W]: 0.0679
HKTFRKLREFDTP [L9E]: 0.233
HKTFRKLYLFDTP [R8Y]: 0.257

For quick reference, copied from above (study 1):
CATGGAAA: -0.224
ACTGGAAA: -0.145
CGGATTAG: 0.204
AAGCAATG: -0.216
CGGCTGGA: 0.264
GCTGGCCA: -0.0465
CCAAGCCA: -0.165
AATGTAAT: -0.0289
GGGCCACA: -0.0752
CCGATTAC: 0.0868
AAGCCTCG: 0.0244
